Measurements pooled from the literature.
Lines come from different studies, so protocols differ. ± marks the error that the study gave.
Target: Delta-type opioid receptor (Oprd1, Rattus norvegicus, UniProt P33533)
UniProt P33533, sequence (whole entry, looked up): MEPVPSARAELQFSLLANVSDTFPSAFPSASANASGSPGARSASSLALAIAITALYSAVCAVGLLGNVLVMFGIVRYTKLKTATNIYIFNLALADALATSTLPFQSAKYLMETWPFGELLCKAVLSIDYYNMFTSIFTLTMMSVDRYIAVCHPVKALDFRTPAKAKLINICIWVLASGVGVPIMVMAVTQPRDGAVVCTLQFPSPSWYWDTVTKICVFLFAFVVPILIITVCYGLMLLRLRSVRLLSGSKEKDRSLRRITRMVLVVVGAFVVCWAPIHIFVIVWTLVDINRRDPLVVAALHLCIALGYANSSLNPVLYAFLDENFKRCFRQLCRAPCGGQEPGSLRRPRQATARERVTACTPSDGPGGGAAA

Structure (SMILES)	test	conditions	Ki
Cc1cc(O)cc(C)c1CC(N)C(=O)NC1CCNc2ccc(CN3CCC4CCCCC4C3)cc21 (centres unmarked)	ligand displacement, radioligand	cell membranes	4.8 nM
CCNC(=O)c1cc(Cc2ccccc2)cc2c1NCCC2NC(=O)C(N)Cc1c(C)cc(O)cc1C (centres unmarked)	ligand displacement, radioligand	cell membranes	1.8 nM
Cc1cc(O)cc(C)c1C[C@H](N)C(=O)N[C@@H](C(=O)NCC(=O)N[C@@H](Cc1ccc2ccccc2c1)C(=O)N[C@@H](CC(C)C)C(=O)N[C@@H](CO)C(N)=O)[C@H](C)O	ligand displacement, radioligand	pH 7.4, cell membranes	0.7 nM
Cc1cc(O)cc(C)c1CC(N)C(=O)NC1CCNc2c(CN3CCOCC3)cc(Cc3ccccc3)cc21 (centres unmarked)	ligand displacement, radioligand	cell membranes	2.3 nM
CC(C)C[C@H](NC(=O)[C@H](Cc1ccc2ccccc2c1)NC(=O)CNC(=O)[C@H](NC(=O)[C@@H](N)Cc1ccc(O)cc1)[C@H](C)O)C(=O)N[C@@H](CO)C(N)=O	ligand displacement, radioligand	pH 7.4, cell membranes	0.47 nM
NCCCC[C@H]1NC(=O)[C@H](Cc2ccc(O)cc2)NC(=O)CNC(=O)[C@H](Cc2ccc(O)cc2)NC(=O)[C@H](CNC(=O)c2ccccc2N)NC1=O	binding		1220 ± 278 nM
CC(C)C[C@H](NC(=O)[C@H](Cc1ccc2ccccc2c1)NC(=O)CNC(=O)[C@H](NC(=O)[C@@H](N)Cc1ccc(O)cc1)[C@H](C)O)C(=O)N[C@@H](CO[C@@H]1O[C@H](CO)[C@@H](O)[C@H](O)[C@H]1O)C(N)=O	ligand displacement, radioligand	pH 7.4, cell membranes	0.87 nM
Cc1cc(O)cc(C)c1CC(N)C(=O)NC1CCNc2ccc(Cc3cccnc3)cc21 (centres unmarked)	ligand displacement, radioligand	cell membranes	17 nM
Cc1cc(O)cc(C)c1C[C@H](N)C(=O)N1Cc2ccccc2C[C@H]1CN[C@@H](Cc1ccccc1)C(=O)N[C@@H](Cc1ccccc1)C(N)=O	ligand displacement, radioligand	cell membranes	0.4 nM
Cc1cc(O)cc(C)c1CC(N)C(=O)NC1CCNc2ccc(CN3CCOCC3)cc21 (centres unmarked)	ligand displacement, radioligand	cell membranes	140 nM
CCCCc1cc(Cc2ccccc2)cc2c1NCCC2NC(=O)C(N)Cc1c(C)cc(O)cc1C (centres unmarked)	ligand displacement, radioligand	cell membranes	3.6 nM

Repeated from above:
Structure (SMILES)	test	conditions	Ki
Cc1cc(O)cc(C)c1CC(N)C(=O)NC1CCNc2c(CN3CCOCC3)cc(Cc3ccccc3)cc21 (centres unmarked)	ligand displacement, radioligand	cell membranes	2.3 nM
